Experimental data pooled from the literature.
Compare with care: the assays were run in different laboratories. Several values in a cell are separate wells, animals, samples, runs or records. Numbers after ± are the reported error.
lasR: Transcriptional activator protein LasR (lasR, Pseudomonas aeruginosa, UniProt P25084)
MAPK3: Mitogen-activated protein kinase 3 (MAPK3, Homo sapiens, UniProt P27361)
UniProt P27361, sequence (whole entry, looked up): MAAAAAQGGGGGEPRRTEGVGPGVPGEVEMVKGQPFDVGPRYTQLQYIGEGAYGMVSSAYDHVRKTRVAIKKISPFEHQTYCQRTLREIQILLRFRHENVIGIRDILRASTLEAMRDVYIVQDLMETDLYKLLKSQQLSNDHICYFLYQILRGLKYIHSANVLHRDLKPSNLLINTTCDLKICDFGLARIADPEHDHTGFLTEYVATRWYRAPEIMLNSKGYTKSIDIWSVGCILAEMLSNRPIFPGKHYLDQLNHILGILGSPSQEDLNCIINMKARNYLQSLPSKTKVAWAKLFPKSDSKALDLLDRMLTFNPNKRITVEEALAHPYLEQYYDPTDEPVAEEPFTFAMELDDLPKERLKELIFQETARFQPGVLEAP
Uncharacterized hydrolase SAUSA300_2518: Uncharacterized hydrolase SAUSA300_2518 (Staphylococcus aureus, UniProt Q2FDS6)
Oprm1: Mu-type opioid receptor (Oprm1, Rattus norvegicus, UniProt P33535)
UniProt P33535, sequence (whole entry, looked up): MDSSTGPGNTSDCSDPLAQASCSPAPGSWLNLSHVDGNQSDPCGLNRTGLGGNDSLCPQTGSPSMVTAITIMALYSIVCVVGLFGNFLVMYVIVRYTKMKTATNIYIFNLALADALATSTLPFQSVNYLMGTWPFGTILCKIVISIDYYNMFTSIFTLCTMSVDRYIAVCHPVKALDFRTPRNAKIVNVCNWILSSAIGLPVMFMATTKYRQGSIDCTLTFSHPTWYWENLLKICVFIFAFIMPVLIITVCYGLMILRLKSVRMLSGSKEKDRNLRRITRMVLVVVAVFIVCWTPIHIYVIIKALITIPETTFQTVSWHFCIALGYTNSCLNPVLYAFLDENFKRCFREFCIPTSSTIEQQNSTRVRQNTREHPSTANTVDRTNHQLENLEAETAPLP
ARAF: Serine/threonine-protein kinase A-Raf (ARAF, Homo sapiens, UniProt P10398)
UniProt P10398, sequence (whole entry, looked up): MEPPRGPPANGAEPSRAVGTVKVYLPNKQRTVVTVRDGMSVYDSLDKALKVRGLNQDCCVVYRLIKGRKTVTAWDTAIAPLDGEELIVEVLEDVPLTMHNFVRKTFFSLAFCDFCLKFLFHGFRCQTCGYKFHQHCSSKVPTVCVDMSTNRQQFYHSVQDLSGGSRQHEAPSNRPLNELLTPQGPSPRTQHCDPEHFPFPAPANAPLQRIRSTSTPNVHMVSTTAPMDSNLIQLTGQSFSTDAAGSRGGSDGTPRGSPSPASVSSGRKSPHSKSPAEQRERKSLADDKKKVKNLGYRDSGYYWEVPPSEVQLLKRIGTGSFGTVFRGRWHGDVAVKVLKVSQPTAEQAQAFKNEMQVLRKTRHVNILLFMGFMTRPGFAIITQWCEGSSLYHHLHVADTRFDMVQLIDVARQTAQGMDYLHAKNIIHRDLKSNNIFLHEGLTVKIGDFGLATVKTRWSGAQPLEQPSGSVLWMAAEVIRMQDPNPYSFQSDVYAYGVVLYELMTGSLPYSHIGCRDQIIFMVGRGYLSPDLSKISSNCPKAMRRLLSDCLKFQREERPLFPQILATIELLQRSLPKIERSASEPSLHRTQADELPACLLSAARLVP
sdiA: Regulatory protein SdiA (sdiA, Escherichia coli, UniProt P07026)
UniProt A5GZW8, sequence (whole entry, looked up): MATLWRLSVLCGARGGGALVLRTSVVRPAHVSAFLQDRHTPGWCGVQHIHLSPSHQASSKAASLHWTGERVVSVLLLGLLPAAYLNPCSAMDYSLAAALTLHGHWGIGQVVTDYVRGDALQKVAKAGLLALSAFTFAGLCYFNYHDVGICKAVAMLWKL
UniProt Q007T0, sequence (whole entry, looked up): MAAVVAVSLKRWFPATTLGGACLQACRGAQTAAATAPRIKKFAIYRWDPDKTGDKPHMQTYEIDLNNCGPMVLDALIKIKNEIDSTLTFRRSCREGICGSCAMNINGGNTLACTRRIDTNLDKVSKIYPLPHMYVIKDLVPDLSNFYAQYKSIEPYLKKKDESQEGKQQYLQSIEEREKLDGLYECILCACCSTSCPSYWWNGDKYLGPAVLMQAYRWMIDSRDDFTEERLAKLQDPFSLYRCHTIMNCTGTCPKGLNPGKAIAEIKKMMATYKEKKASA
UniProt D0VWV4, sequence (whole entry, looked up): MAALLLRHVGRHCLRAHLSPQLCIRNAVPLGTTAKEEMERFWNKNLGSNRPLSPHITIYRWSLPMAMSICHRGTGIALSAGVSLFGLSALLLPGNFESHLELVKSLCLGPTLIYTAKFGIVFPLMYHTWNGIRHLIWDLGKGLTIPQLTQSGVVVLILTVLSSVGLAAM
UniProt Q00987, sequence (whole entry, looked up): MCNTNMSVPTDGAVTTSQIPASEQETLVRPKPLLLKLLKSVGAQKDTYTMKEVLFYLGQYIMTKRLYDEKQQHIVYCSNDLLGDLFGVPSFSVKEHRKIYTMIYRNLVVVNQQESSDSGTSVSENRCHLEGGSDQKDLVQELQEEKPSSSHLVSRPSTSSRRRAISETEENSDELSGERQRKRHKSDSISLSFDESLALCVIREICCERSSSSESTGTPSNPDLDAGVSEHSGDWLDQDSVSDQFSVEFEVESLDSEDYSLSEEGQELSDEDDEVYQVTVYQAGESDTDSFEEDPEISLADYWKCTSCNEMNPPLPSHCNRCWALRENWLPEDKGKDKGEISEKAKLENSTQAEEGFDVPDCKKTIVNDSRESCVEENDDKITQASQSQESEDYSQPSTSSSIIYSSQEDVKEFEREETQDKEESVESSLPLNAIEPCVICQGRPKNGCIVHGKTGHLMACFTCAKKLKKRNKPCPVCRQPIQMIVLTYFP
UniProt P07026, sequence (whole entry, looked up): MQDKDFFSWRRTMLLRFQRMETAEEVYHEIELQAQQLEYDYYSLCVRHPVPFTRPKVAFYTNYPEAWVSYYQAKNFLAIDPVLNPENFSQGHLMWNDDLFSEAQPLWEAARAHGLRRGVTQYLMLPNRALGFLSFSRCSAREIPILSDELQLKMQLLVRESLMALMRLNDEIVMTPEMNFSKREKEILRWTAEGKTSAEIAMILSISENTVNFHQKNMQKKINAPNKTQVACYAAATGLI
UniProt Q9Y2J8, sequence (whole entry, looked up): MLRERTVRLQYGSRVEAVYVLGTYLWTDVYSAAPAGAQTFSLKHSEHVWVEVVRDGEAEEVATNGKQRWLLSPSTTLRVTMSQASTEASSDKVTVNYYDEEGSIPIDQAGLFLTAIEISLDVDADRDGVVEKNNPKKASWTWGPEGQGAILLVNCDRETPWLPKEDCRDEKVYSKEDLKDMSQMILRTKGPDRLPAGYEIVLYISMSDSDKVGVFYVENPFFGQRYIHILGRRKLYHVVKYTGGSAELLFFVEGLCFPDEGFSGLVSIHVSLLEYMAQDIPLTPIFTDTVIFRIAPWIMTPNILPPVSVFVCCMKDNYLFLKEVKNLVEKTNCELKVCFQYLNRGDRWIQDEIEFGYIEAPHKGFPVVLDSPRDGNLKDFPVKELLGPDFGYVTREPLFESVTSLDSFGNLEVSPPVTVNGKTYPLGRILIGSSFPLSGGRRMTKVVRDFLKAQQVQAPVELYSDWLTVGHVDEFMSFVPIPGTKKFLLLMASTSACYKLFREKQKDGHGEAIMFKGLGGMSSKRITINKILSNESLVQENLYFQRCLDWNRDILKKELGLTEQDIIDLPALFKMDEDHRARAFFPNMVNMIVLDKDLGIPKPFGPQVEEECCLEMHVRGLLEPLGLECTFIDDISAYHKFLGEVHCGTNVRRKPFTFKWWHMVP
UniProt P16234, sequence (whole entry, unmodified, looked up): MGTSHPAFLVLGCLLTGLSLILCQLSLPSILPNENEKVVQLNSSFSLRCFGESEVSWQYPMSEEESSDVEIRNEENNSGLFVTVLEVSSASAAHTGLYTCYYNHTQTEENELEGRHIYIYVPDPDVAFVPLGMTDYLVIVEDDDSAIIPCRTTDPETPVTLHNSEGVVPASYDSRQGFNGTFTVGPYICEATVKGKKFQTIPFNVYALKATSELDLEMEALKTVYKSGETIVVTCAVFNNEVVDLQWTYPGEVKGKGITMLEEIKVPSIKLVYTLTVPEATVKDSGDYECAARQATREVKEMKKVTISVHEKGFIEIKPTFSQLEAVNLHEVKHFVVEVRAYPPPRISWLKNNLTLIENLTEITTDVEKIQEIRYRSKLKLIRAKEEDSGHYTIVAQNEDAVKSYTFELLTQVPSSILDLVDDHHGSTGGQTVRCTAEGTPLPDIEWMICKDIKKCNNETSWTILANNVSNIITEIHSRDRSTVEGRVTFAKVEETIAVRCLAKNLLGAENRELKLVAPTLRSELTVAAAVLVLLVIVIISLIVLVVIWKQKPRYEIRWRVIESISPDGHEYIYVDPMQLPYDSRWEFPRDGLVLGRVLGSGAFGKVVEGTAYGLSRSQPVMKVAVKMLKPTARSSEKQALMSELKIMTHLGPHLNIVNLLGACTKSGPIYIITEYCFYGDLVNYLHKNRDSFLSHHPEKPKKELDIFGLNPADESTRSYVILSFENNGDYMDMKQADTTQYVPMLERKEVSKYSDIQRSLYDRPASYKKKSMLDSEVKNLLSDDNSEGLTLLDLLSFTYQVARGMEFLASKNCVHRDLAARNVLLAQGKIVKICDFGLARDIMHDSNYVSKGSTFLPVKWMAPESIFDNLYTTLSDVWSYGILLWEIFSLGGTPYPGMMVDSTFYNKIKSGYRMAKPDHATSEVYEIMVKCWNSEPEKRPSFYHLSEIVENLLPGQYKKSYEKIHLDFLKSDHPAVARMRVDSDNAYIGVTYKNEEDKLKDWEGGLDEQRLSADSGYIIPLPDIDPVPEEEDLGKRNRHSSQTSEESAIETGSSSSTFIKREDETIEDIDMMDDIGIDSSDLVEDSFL
UniProt P0A988, sequence (whole entry, unmodified, looked up): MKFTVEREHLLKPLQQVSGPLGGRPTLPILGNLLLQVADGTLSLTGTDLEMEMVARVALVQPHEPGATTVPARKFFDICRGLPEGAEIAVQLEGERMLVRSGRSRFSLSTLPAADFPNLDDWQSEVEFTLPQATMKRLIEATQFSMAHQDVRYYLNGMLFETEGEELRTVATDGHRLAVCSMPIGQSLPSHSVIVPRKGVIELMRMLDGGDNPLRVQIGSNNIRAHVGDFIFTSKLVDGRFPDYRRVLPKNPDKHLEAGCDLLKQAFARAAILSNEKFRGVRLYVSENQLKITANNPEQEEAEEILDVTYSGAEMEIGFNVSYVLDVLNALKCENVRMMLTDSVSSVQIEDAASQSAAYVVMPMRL

Compound	tested on	assay	system	conditions	scale	endpoint	value
CC(C)CC(O)(CC(C)C)c1cn(C(=O)N2CCCC2)nn1	GPI inositol-deacylase (Pgap1, Mus musculus, UniProt Q3UUQ7)	probe labelling, inhibitor, competitive ABPP-SILAC, refers to: Pgap1	mouse T cells	concentration not given, 4 h, in situ, protein level	baseline: treated over DMSO, lower = more inhibition	SILAC ratio	1.27
Cc1nc2cccc(OCC(C)(C)C(=O)NC(C)C)c2c(N)c1C(=O)[O-].[Na+]	Salmonella typhimurium		TA100	0.80 mg per plate, without S9, preincubation		revertant colonies per plate	131 ± 21
O=C(NCc1cc(Br)cc(Br)c1OC(=O)c1ccccc1[N+](=O)[O-])c1ccccc1Cl	lasR	reporter gene, agonist			baseline: EC50 PAO-JP2 over E. coli JLD271	potency ratio	9.1
O=C1NC2(CC2)COc2ncc(F)cc2[C@H]2COCCN2c2ccn3ncc1c3n2			Sprague-Dawley rat, male, serum	oral, 2.5 mg/kg/day, end of treatment, 4-week subacute toxicity		serum sodium	145 ± 1 mmol/L
Nc1ccc(/C=C/C(=O)N2CCc3c(oc4c(-c5ccc(F)cc5)cc(-c5ccc(C(=O)N6CCC(F)(F)CC6)cn5)cc34)C2)cn1	MAPK3	binding, competition with immobilised ligand		1 µM		remaining binding	100%
CC(C)[C@H]1NC(=O)C[C@H]2/C=C/CCSSC[C@@H](NC1=O)C(=O)N[C@H](Cc1cccc3ccccc13)C(=O)NCC(=O)O2	PDGFRA (Homo sapiens, UniProt P16234, D842V)	enzyme activity, inhibitor		10 µM		inhibition	2.1%
Cc1cc(C)cc(COc2cc3c(cc2OCc2cc(C)cc(C)c2)C2CC(O)(Cc4cn(CCOCCOCCOCCNc5cccc6c5C(=O)N(C5CCC(=O)NC5=O)C6=O)nn4)CC(C)N2CC3)c1 (racemic)	Rab GDP dissociation inhibitor beta (Homo sapiens, UniProt P50395)	degrader, Western blot	PC-3	2 µM, 24 h		degradation	6%
CN1CCCN(C(=O)c2ccc(S(=O)(=O)F)cc2)c2ccccc21	Uncharacterized hydrolase SAUSA300_2518	enzyme activity, inhibitor, fluorogenic substrate		50 µM		remaining activity	103%
CC(C)[C@H](NC(=S)Nc1ccc2c(c1)C(=O)OC21c2ccc(O)cc2Oc2cc(O)ccc21)C(=O)N[C@@H](CCCNC(=N)N)C(=O)N[C@@H](CCCNC(=N)N)C(=O)N[C@@H](C)C(=O)N[C@@H](CC(=O)O)C(=O)N[C@@H](CC(N)=O)C(=O)N[C@@H](CCCNC(=N)N)C(=O)N1CCC[C@H]1C(=O)NCC(=O)O	Cyclic nucleotide-gated channel beta-3 (CNGB3, Homo sapiens, UniProt Q9NQW8, C234W)	binding, saturation binding	HEK293T expressing Myc-tagged CNGB3	60 min, 37 °C		Bmax	0.907 mol/mol receptor
Cc1cc(C(=O)Nc2nc3cccc(C)c3n2[C@H]2CCCCN(C(=O)/C=C/CN(C)C)C2)ccn1	Trypanosoma brucei	propidium iodide flow cytometry	bloodstream form	concentration not given, 8 h		cells in G1 phase	34.5%
C=CC(=O)NC[C@H](NC(=O)[C@H](CC1CCCCC1)NC(=O)[C@H](CCC(N)=O)NC(C)=O)C(=O)N[C@@H](CC(C)C)C(=O)N[C@@H](Cc1ccccc1)C(=O)O	Beta sliding clamp (Escherichia coli, UniProt P0A988)	binding, isothermal titration calorimetry		37 °C		ΔH	-13.9 kcal/mol
CC[C@@H](C)[C@@H]1CN([C@H](Cc2ccc3ccccc3c2)CN2CCC[C@H]2CN2CCNC[C@@H]2Cc2ccc3ccccc3c2)CCN1CCCC1CCCC1	Oprm1	radioligand binding	rat brain membranes	500 nM, pH 7.5, 25 °C, together with: 0.87 nM [3H]DAMGO		remaining binding	106 ± 8.95%
C=CC(=O)Nc1cc(-c2nn(C3CCC(N4CCN(C(C)=O)CC4)CC3)c3ncnc(N)c23)ccc1Oc1ccccc1 (stereo not shown)	MAPK7 (Homo sapiens, UniProt Q13164)	inhibitor, KiNativ profiling	biochemical	2 µM		inhibition	7.4%
CN(C)[C@H]1C[C@@]23CC[C@@]4(O2)C(=CC[C@]2(C)[C@@H](c5ccc6ccncc6c5)CC[C@H]24)C=C3[C@@H](O)[C@@H]1O	ARAF	ATP probe labelling, inhibitor, KiNativ profiling		1 µM		inhibition	-4%
CCCCCCCCCC(=O)CC(=O)NC1CCCCC1=O (stereo not shown)	lasR	reporter gene, agonist	Pseudomonas aeruginosa PAO-JP2	100 µM, plasI-LVAgfp reporter	baseline: OdDHL at same concentration	agonist activity	7%
CCCCC1CNCCN1CC1CCCN1CC(Cc1ccc2ccccc2c1)N1CCN(CCCC2CCCC2)C(C(C)O)C1 (stereo not shown)	Oprm1	radioligand binding	rat brain membranes	500 nM, pH 7.5, 25 °C, together with: 0.87 nM [3H]DAMGO		remaining binding	103 ± 5.78%
O=C(Cc1cccc(I)c1)N[C@H]1CCOC1=O	sdiA					Emax	127%
O=C1NC(=O)c2c1c1cc(F)c[n+]3c1c1c2c2cc(O)ccc2[n]1[Ru-4]312([N]=C=S)[S+]3CC[S+]1CC[S+]2CC3 (stereo not shown)	PDGFRA (Homo sapiens, UniProt P16234, V561D)	enzyme activity		100 nM, human enzyme, together with: 10 µM ATP	baseline: untreated	remaining activity	8%
OC[C@H]1CNCCN1C[C@@H]1CCCN1C[C@H](CC1CCCCC1)N1CCN(CCCC2CCCC2)[C@H](Cc2ccc(O)cc2)C1	Oprm1	radioligand binding	rat brain membranes	500 nM, pH 7.5, 25 °C, together with: 0.87 nM [3H]DAMGO		remaining binding	108 ± 8.06%
CC(C)(C)C(=O)OCOP(=O)(OCOC(=O)C(C)(C)C)C1CCCN(O)C1=O (stereo not shown)	HOP-92					log LC50	> -4 log M

Compound	tested on	assay	system	conditions	scale	endpoint	value
C[C@H](NCc1ccc(-c2ccc(C(F)(F)F)cc2)cc1)C(N)=O	MAPK3	cell-free assay, competition with immobilised ligand		1 µM		inhibition	4%
CCCCCCC(=O)N[C@H]1CCOC1=O	lasR	reporter gene, agonist	Escherichia coli JLD271	10 µM, pSC11 and pJN105L plasmids	baseline: OdDHL at same concentration	agonist activity	3%
CC[C@H](C)[C@@H]1NC(=O)[C@H](CC(C)C)NC(=O)CNC(=O)[C@H](CCCNC(=N)N)NC(=O)[C@H](Cc2c[nH]c3ccccc23)NC(=O)[C@H](CCSC)NC(=O)[C@H](CO)NC(=O)[C@H](CCC(=O)O)NC(=O)[C@H](Cc2ccccc2)NC(=O)[C@H](CC(=O)O)NC(=O)[C@H]([C@@H](C)O)NC(=O)CNC(=O)[C@H](CCC(=O)O)NC(=O)[C@H]([C@@H](C)O)NC(=O)CNC(=O)[C@H](CC(=O)O)NC1=O	MDM2 (Homo sapiens, UniProt Q00987)	MDM2-ligand binding, inhibitor, AlphaLISA competition		100 µM, together with: GST-tagged MDM2 ligand	lower = stronger inhibition	AlphaLISA signal	991 a.u. and 1010 a.u. and 1000 a.u.
NCCCO.O=C(O)C(Cl)Cl	Eclipta prostrata			15 mg/mL, 21 days, post-emergence, greenhouse		herbicidal inhibition	4%
CN(C)CCCSC(=S)N1CCN(C(=O)/C=C/c2coc3ccccc3c2=O)CC1	Nucleoprotein (N, Tomato spotted wilt virus, UniProt P25999, R94A)	binding, microscale thermophoresis		0.9766 µM	dose series	MST response	842 a.u.
CCCCCC(=O)CC(=O)N[C@H]1CCOC1=O	lasR	plasI-LVAgfp reporter, agonist			baseline: pump-active over pump-mutant	EC50 ratio	> 7.7
Cc1ccc2c(C(C[N+](=O)[O-])c3cccs3)c(-c3ccccc3)[nH]c2c1 (stereo not shown)	CNR1 (Homo sapiens, UniProt P21554, Y397F)	G protein activation, agonist, BRET				EC50	70 nM
CC[C@H](C)[C@H](NC(=O)[C@H](CO)NC(=O)[C@H](Cc1ccc(O)cc1)NC(=O)[C@H](Cc1ccc(O)cc1)NC(=O)[C@H](CC(N)=O)NC(=O)CNC(=O)[C@H](CO)NC(=O)[C@H](Cc1ccc(O)cc1)NC(=O)[C@H](CO)NC(=O)[C@H](CO)NC(=O)[C@H](CC(N)=O)NC(=O)COCCOCCNC(=O)CN1CCN(CC(=O)O)CCN(CC(=O)O)CCN(CC(=O)O)CC1)C(=O)N[C@@H](CC(C)C)C(N)=O [copper-64 labelled]		dynamic PET	mouse, tamoxifen-induced PDAC, blood	intravenous, 0.1 µg/mouse, 5.5 min		tumour uptake	9.65 %ID/mL
N[C@H](C(=O)N1CCCC1)C1CCN(c2nccc3c(-c4ncc(Cl)cc4Cl)cccc23)CC1	PADI2 (Homo sapiens, UniProt Q9Y2J8)	enzyme activity		0.01573 µM, low-affinity site, together with: Ca2+ 0.25 mM		kcat	0.937 s⁻¹ and 0.953 s⁻¹
CCOC(=O)[C@@H]1Cc2c(cc([N+](=O)[O-])cc2[N+](=O)[O-])[C@H](O)[C@]12C(=O)Nc1ccc(Br)cc12	SRPK3 (Homo sapiens, UniProt Q9UPE1)	binding, competition with immobilised ligand		0.1 µM		remaining binding	71%
CC(C)C[C@@H]1NC(=O)[C@H](C(C)C)NC(=O)[C@H](CCC(=O)O)NC(=O)CNC(=O)[C@H]([C@@H](C)O)NC(=O)[C@H](CCC(=O)O)NC(=O)[C@H](CCC(=O)O)NC(=O)[C@H](CC(=O)O)NC(=O)[C@H](C(C)C)NC(=O)[C@H]([C@@H](C)O)NC(=O)CNC(=O)[C@H](CC(=O)O)NC(=O)[C@@H]2CCCN2C1=O	KEAP1 (Homo sapiens, UniProt Q14145)	Keap1-Nrf2 binding, inhibitor, competitive FP		1.562 µM, 30 min, together with: Nrf2 peptide probe	lower = stronger inhibition	fluorescence polarization	0.048 a.u. and 0.198 a.u.
[CH3][Ti+2][O]C(=O)c1ccc([S][Au][PH](c2ccccc2)(c2ccccc2)c2ccccc2)cc1.c1cc[cH-]c1.c1cc[cH-]c1	ARAF	kinase activity, HotSpot kinase		1 µM, together with: ATP 10 µM		remaining activity	98.8% and 98.6%
CCCCC/C=C\C/C=C\C/C=C\C/C=C\CCCC(=O)NCCc1ccc(O)c(O)c1	Trpv1 (Mus musculus, UniProt Q704Y3)	ion current, agonist, whole-cell patch clamp	HEK293		baseline: 3 mM 2-APB current	maximal open probability	0.83 ± 0.05
N=C(N)NCCC[C@@H]1NC(=O)[C@H](CCCCNC(=O)CCC(NC(=S)Nc2ccc(CC3CN(CC(=O)O)CCN(CC(=O)O)CCN(CC(=O)O)CCN3CC(=O)O)cc2)C(=O)NCCCC[C@@H]2NC(=O)[C@@H](Cc3ccc(O)cc3)NC(=O)[C@H](CC(=O)O)NC(=O)CNC(=O)[C@H](CCCNC(=N)N)NC2=O)NC(=O)[C@@H](Cc2ccc(O)cc2)NC(=O)[C@H](CC(=O)O)NC(=O)CNC1=O (stereo partly shown) [scandium-44 labelled]		ex vivo γ-counting	female athymic nude mice, U-87 MG xenograft, intestine	intravenous, 4 h, together with: cRGD 50 mg/kg blocking		tissue uptake	0.055 ± 0.013 %ID/g
O=C(Cc1ccc(Br)cc1)N[C@H]1CCOC1=O	sdiA					Emax	93.8%
COc1ccccc1-c1n[nH]c2nc(N[C@H]3CC[C@H](NS(=O)(=O)CC(C)C)CC3)ncc12	cyclin 9 (Leishmania donovani, UniProt A0A2D1QVA3)	competitor, bead pull-down competition	Leishmania donovani extract	0.4 µM	baseline: vehicle	remaining binding	8%
CON(C(=O)c1cn(C)nc1C(F)F)C(C)Cc1c(Cl)cc(Cl)cc1Cl (stereo not shown)	SDHD/SDHC/SDHB (Sus scrofa, UniProt A5GZW8+D0VWV4+Q007T0)	enzyme activity, inhibitor, DCIP reduction	pig	0.3 µM, together with: DCIP 80 µM		reaction velocity	0.0122 µM/s and 0.0114 µM/s and 0.0111 µM/s
CS(C)(=O)=Nc1ccc(-c2ccc(-c3nc4cc(O[C@@H]5CO[C@H]6[C@@H]5OC[C@H]6O)[nH]c4cc3F)cc2)cc1	KV channel	binding, radioligand binding		10 µM		inhibition	-3%
Cc1ccc(NC(=O)CCc2cccc(NC3=CC(=O)N(C4CCC(=O)NC4=O)C3=O)c2)cc1Cl (stereo not shown)	CRBN/Zinc finger protein Aiolos (Homo sapiens, UniProt Q96SW2+Q9UKT9)	degrader, quantitative proteomics, refers to: protein abundance	Jurkat	1 µM, 4 h	baseline: DMSO	log2 fold change	-1.84
Cc1ccc(OS(=O)(=O)F)c(C(=O)Nc2ccncc2)c1	Uncharacterized hydrolase SAUSA300_2518	enzyme activity, inhibitor, fluorogenic substrate		0.5 µM		remaining activity	83.6% and 85% and 80.7%

Excerpt of the above:
Compound	tested on	assay	system	conditions	scale	endpoint	value
CCCCCCCCCC(=O)CC(=O)NC1CCCCC1=O (stereo not shown)	lasR	reporter gene, agonist	Pseudomonas aeruginosa PAO-JP2	100 µM, plasI-LVAgfp reporter	baseline: OdDHL at same concentration	agonist activity	7%
CN(C)[C@H]1C[C@@]23CC[C@@]4(O2)C(=CC[C@]2(C)[C@@H](c5ccc6ccncc6c5)CC[C@H]24)C=C3[C@@H](O)[C@@H]1O	ARAF	ATP probe labelling, inhibitor, KiNativ profiling		1 µM		inhibition	-4%
